Published values of several laboratories.
Numbers after ± are the reported error.

Structure (SMILES) = CSCC[C@H](NC(=O)CN)C(=O)N[C@@H](CCCNC(=N)N)C(=O)N[C@@H](Cc1c[nH]c2ccccc12)C(=O)N[C@@H](CO)C(=O)N[C@@H](CCCNC(=N)N)C(=O)N[C@@H](CCCCN)C(=O)N[C@@H](CCSC)C(=O)N1CCC[C@H]1C(=O)N[C@@H](CS)C(=O)N[C@H](C(=O)N[C@@H](CO)C(N)=O)C(C)C; assay = 12G5 competition, SUP-T1 cells; system = human plasma; setting = 20 µM, 2 h, 37 °C; quantity = remaining activity; result = 43 ± 3%
Structure (SMILES) = CCOc1ccc2ccc(=O)oc2c1; system = mouse liver microsomes; setting = 1 µM, 60 min, pH 7.4, together with: without cofactors; quantity = remaining compound; result = 95%
Structure (SMILES) = Cn1cncc1-c1c(F)cncc1NC(=O)c1c(N)nn2cc(F)cnc12; system = human EDTA plasma; setting = 4000 ng/mL, 6 months, -80 °C; quantity = remaining compound; result = 111%
Structure (SMILES) = CC(C)C[C@H](NC(=O)[C@H](N)C(C)C)C(=O)N[C@@H](CCCNC(=N)N)C(=O)N[C@@H](Cc1c[nH]c2ccccc12)C(=O)N[C@@H](CO)C(=O)N[C@@H](CCCNC(=N)N)C(=O)N[C@@H](CCCCN)C(=O)N[C@@H](CC(C)C)C(=O)N1CCC[C@H]1C(=O)N[C@@H](CS)C(=O)N[C@H](C(=O)N[C@@H](CO)C(N)=O)C(C)C; assay = 12G5 competition, SUP-T1 cells; system = human plasma; setting = 20 µM, 8 h, 37 °C; quantity = remaining activity; result = 60 ± 4%
Structure (SMILES) = CC1(C)COC(c2c(O)ccc3c4c(c(=O)oc23)CNCC4)OC1; assay = fluorescence; system = PBS with 1% DMSO; setting = 10 µM, 48 h, 37 °C; how to read = reference: initial intensity; quantity = remaining fluorescence intensity; result = ~60%
Structure (SMILES) = O=C1CC2(CCCC2)CC(=O)N1CCCCN1CCN(c2ncccn2)CC1; assay = LC-MS; system = Sprague-Dawley rat liver microsomes; setting = 10 µM, 20 min, pH 7.4, together with: NADPH; how to read = reference: time 0; quantity = remaining parent compound; result = 78%
Structure (SMILES) = CC(C)C[C@@H]1NC(=O)CNC(=O)[C@H](CC(N)=O)NC(=O)[C@H](CCCNC(=N)N)NC(=O)[C@H]([C@@H](C)O)NC(=O)[C@@H]2CSSC[C@@H]3NC(=O)[C@H]([C@@H](C)O)NC(=O)CNC(=O)CNC(=O)[C@H](C(C)C)NC(=O)[C@@H]4CSSC[C@H](NC(=O)[C@H]([C@@H](C)O)NC(=O)[C@H](CSSC[C@H](NC(=O)[C@H](C(C)C)NC(=O)[C@@H]5CCCN5C1=O)C(=O)NCC(=O)N[C@@H](CCC(=O)O)C(=O)N[C@@H]([C@@H](C)O)C(=O)N4)NC(=O)CNC(=O)[C@@H]1CCCN1C(=O)[C@H]([C@@H](C)O)NC(=O)[C@H](CC(N)=O)NC3=O)C(=O)N[C@@H](CO)C(=O)N[C@@H](Cc1c[nH]c3ccccc13)C(=O)N1CCC[C@H]1C(=O)N[C@@H](C(C)C)C(=O)N2; assay = HPLC; system = ammonium bicarbonate 0.1 M; setting = 180 µM, 14 days, pH 9.0, 37 °C, deamidation stability; quantity = remaining peptide; result = 57.3 ± 4.4%
Structure (SMILES) = Cc1cc(C(=O)NC(C)(C)COc2cccc3c2C(N)=NS(=O)(=O)N3)cc(C)n1; assay = LC-MS; system = Sprague-Dawley rat liver microsomes; setting = 10 µM, 60 min, pH 7.4, together with: NADPH; how to read = reference: time 0; quantity = remaining parent compound; result = 101%
Structure (SMILES) = CC[N+]1(C)CCN(c2ccc(NC(=O)c3cccc(C)n3)cc2)CC1; system = pooled BALB/c mouse plasma; setting = 1 µM, 0.1667 h; quantity = remaining compound; result = 96.8%
Structure (SMILES) = CC(C)OC(=O)c1sc(Nc2ncccn2)nc1-c1cnccn1; system = human liver microsomes; setting = 60 min; quantity = remaining parent; result = 70.9 area %
Structure (SMILES) = CSCC[C@H](NC(=O)[C@H](CCCCN)NC(=O)[C@H](CCCNC(=N)N)NC(=O)[C@H](CO)NC(=O)[C@H](Cc1c[nH]c2ccccc12)NC(=O)[C@H](CCCNC(=N)N)NC(=O)[C@@H](CC(C)C)NC(=O)[C@@H](N)CCSC)C(=O)N1CCC[C@H]1C(=O)N[C@@H](CS)C(=O)N[C@H](C(=O)N[C@@H](CO)C(N)=O)C(C)C; assay = 12G5 competition, SUP-T1 cells; system = human plasma; setting = concentration not given, 2 h; quantity = remaining activity; result = 92 ± 21%
Structure (SMILES) = N#Cc1ccc(Nc2nc(N)cc(Oc3c(F)cc(-c4ccc(C#N)cc4)cc3F)n2)cc1; system = human plasma; setting = 1 µM, 0.50 h, pH 7.4, 37 °C; quantity = remaining compound; result = 93.8%
Structure (SMILES) = CSCC[C@H](N)C(=O)N[C@H](CC(C)C)C(=O)N[C@@H](CCCNC(=N)N)C(=O)N[C@@H](Cc1c[nH]c2ccccc12)C(=O)N[C@@H](CO)C(=O)N[C@@H](CCCNC(=N)N)C(=O)N[C@@H](CCCCN)C(=O)N[C@@H](CC(C)C)C(=O)N1CCC[C@H]1C(=O)N[C@@H](CS)C(=O)N[C@H](C(=O)N[C@@H](CO)C(N)=O)C(C)C; assay = 12G5 competition, SUP-T1 cells; system = human plasma; setting = concentration not given, 2 h; quantity = remaining activity; result = 71 ± 2%
Structure (SMILES) = CC(C)C[C@@H]1NC(=O)[C@H](CCCCN)NC(=O)[C@H](CC(N)=O)NC(=O)[C@H](CCCNC(=N)N)NC(=O)[C@H]([C@@H](C)O)NC(=O)[C@@H]2CSSC[C@@H]3NC(=O)[C@H]([C@@H](C)O)NC(=O)CNC(=O)CNC(=O)[C@H](C(C)C)NC(=O)[C@@H]4CSSC[C@H](NC(=O)[C@H](CCCCN)NC(=O)[C@H](CSSC[C@H](NC(=O)[C@H](C(C)C)NC(=O)[C@@H]5CCCN5C1=O)C(=O)NCC(=O)N[C@@H](CCC(=O)O)C(=O)N[C@@H]([C@@H](C)O)C(=O)N4)NC(=O)CNC(=O)[C@@H]1CCCN1C(=O)[C@H]([C@@H](C)O)NC(=O)[C@H](CC(N)=O)NC3=O)C(=O)N[C@@H](CO)C(=O)N[C@@H](Cc1c[nH]c3ccccc13)C(=O)N1CCC[C@H]1C(=O)N[C@@H](C(C)C)C(=O)N2; assay = HPLC; system = ammonium bicarbonate 0.1 M; setting = 180 µM, 7 days, pH 9.0, 37 °C, deamidation stability; quantity = remaining peptide; result = 99.2 ± 0.6%

Repeated from above:
Structure (SMILES) = Cc1cc(C(=O)NC(C)(C)COc2cccc3c2C(N)=NS(=O)(=O)N3)cc(C)n1; assay = LC-MS; system = Sprague-Dawley rat liver microsomes; setting = 10 µM, 60 min, pH 7.4, together with: NADPH; how to read = reference: time 0; quantity = remaining parent compound; result = 101%
Structure (SMILES) = CC[N+]1(C)CCN(c2ccc(NC(=O)c3cccc(C)n3)cc2)CC1; system = pooled BALB/c mouse plasma; setting = 1 µM, 0.1667 h; quantity = remaining compound; result = 96.8%
